Assay results of several laboratories.
Every numbered part comes from another study and shows a few of its results, in no order.

Series 1
Target: Sal-like protein 4, full length isoform B (SALL4, Homo sapiens, UniProt Q9UJQ4-2, residues 1-616)
Technique: universal PBM
Molecule type: double-stranded DNA, one strand shown
Medium: in vitro
Tested at: not given
Notes: 8-mer, flanks averaged, mean of replicates
Reading: higher = stronger binding
| Strand | E-score |
| --- | --- |
| AATTAATG | 0.323 |
| ATAACGGC | 0.11 |
| GGACGAAC | 0.035 |
| AGAGGAAT | -0.00108 |
| CTTCTAGC | -0.204 |
| CTCATTAA | 0.188 |
| ACGCGTGC | -0.0686 |
| ACACCGCT | -0.241 |
| GGGACCCA | -0.236 |
| AGCACGGG | -0.2 |
| GTTACTCA | 0.158 |
| GATTCAAA | 0.183 |
| CCAGTAGC | -0.119 |
| ACTCATAC | 0.224 |
| GCTGTCCC | -0.192 |
| AAGAAGGC | 0.0139 |
| ACGAACGT | 0.0406 |
| AAAAGTTA | 0.267 |
| CAGTGAAG | -0.00154 |
| CTGATGCA | -0.0145 |
| ATTGGTAA | 0.182 |
| CAACCTCC | -0.104 |
| GAGCCGAC | -0.387 |
| AGCCAGAA | -0.144 |
| ATTTCCCA | 0.166 |

Series 2
Target: RING finger protein unkempt homolog, zinc fingers 1-6, GST-SBP tag (UNK, Homo sapiens, UniProt Q9C0B0, residues 30-357)
UniProt Q9C0B0, sequence (30-357, looked up): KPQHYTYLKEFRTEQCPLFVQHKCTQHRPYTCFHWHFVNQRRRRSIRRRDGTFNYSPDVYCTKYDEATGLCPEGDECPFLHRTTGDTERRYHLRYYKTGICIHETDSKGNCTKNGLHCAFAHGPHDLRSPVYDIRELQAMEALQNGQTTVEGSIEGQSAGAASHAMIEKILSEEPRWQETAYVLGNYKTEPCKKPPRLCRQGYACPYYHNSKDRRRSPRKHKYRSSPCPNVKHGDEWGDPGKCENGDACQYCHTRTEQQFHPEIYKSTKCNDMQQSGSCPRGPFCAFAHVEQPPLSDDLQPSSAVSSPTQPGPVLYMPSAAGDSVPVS
Technique: RNA Bind-n-Seq
Molecule type: RNA
Medium: in vitro
Tested at: not given
Notes: RNA with constant flanks, human and mouse sites, ends assumed
Relative to: input RNA pool
Reading: higher = stronger binding
| Strand | bound/input enrichment [ratio] |
| --- | --- |
| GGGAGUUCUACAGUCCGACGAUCGGUGCUUAUAAUUAUCCUUUCACUUGGAAUACACCAUCUGCUCCCCCUGGCUAUAACAUUGCUGUCAAACCAGAUCAAAUCCAGUACACCGAACUGUCCAAUGCUAAGAUCGCCUACAAGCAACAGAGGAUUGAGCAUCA | 0.25 |
| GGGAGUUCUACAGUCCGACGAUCCAAACACCAGCAACAUCAGAGCUGAACUUCUUAAGAAAAGCACAGACAUUGGAAACAUAUGGAGUGGAUCCUCACCCAUGUAAGGACGUGUCAGGAAAUGCUGCAUUUCUGGCCUUCACUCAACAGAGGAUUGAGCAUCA | 0.188 |
| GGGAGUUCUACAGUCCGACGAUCAACUAUUUUUCUUUGCUCAUGGGCUGGAUGGGAAUUACCCCUCCUCCAGUGCAAUGUCAUCAUAGACUGUCCAUGACAGAUGAUAGCAAAAAGCAGGAUCUUAGUUCAUCUUUAACAGAUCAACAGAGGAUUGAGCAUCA | 0.231 |
| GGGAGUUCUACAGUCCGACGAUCUCUCCGUCGAAUGCAGCAGGUGGCUACCCAGCUGGGCAUGUUCAGCCCGAUCGCCCUCCAGUUUGGAGCCUACAGCGCCUACACCCAGGCCCUGAUGCAGCAGCAGGCGGCCCUGGUAGCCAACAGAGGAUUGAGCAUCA | 0.215 |
| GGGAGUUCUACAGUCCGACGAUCUGCUGCAUCCUGCACAGCAGGGUUCAGUUUCAUGUAUCUUUGUCUUUUCCUCUAGAACCUGCCUUUUUCAAAUAUCCCUGCCUUUUCCCACCUGGAAACAUAUACUGUAUGCGAAAGAGUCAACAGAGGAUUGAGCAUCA | 0.351 |
| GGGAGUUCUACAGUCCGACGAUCAUCUUUAUCUCACAAGAUGAAAUACAGUCAUUUAUGGCUAAUAACCAGUCUUUCUACAGCAAUAGAGAACAAUACCGACAGCAUCUGAAGGAGAAAUUUAAUAAAUACUGCCGCUUAAAUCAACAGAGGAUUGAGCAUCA | 0.372 |
| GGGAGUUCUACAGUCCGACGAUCUUUGAUGUCAUGGUGAUGCCCAAUCUCUAUGGCAACAUCGUCAACAAUGUCUGCGCGGGACUGGUCGGGGGCCCAGGCCUUGUGGCUGGGGCCAACUAUGGCCAUGUGUACGCGGUGUUUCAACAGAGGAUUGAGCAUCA | 0.178 |
| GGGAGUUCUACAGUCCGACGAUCAAGAAUGCAGUCAUUGUUGACACUACCAUCUGCGACCCACAUUACAACCUGGCCCGCAGCAGCCGGCCCUUCGAGAGGCGCCUCUAUGUCCUGAACUCAAUGCAGGAUGUGGAAAACUACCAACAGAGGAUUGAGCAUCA | 0.184 |
| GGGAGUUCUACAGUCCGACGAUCCAGCAGCCACAGCCACUGAUGUCACAGCAGUUUGCACAGCCUCCAGGAGCUACCAAUAUGAUAGGCUACAUGGGGCAGACUGCUUACCAGUACCCUCCCCCUCCCCCUCCCCCUCCUCCACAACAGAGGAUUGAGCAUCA | 0.333 |
| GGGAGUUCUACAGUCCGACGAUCGGAGGAGAGGACAAAUUAAAGAUGAUUCGGGAGUACCGGCAAAUGGUUGAAACUGAGCUCAAGUUAAUCUGUUGUGACAUUCUGGAUGUACUGGACAAACACCUCAUUCCAGCAGCUAACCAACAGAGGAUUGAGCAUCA | 0.696 |
| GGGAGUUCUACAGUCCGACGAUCUGCCUCUCAUUCAAUCCCUACAGCGAGUUCAUUCUGGCAACUGGCUCUGCAGAUAAGACUGUAGCUUUAUGGGACCUGCGUAAUCUGAAACUAAAACUCCACACCUUUGAAUCGCAUAAGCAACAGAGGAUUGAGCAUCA | 0.171 |

Series 3
Target: Histone acetyltransferase KAT6A, winged helix 1, GST fusion (KAT6A, Homo sapiens, UniProt Q92794, residues 1-85)
Technique: protein binding microarray
Molecule type: double-stranded DNA, one strand shown
Medium: in vitro
Tested at: not given
Notes: 8-mer, flanks averaged, mean of 2 arrays, mostly near background
Relative to: not given
Reading: higher = stronger binding
Target sequence (chain): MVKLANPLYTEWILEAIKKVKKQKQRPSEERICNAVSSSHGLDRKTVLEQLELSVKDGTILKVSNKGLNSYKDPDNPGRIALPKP
| Strand | E-score |
| --- | --- |
| GTTCGAAC | -0.215 |
| GCCCGAAA | -0.0415 |
| GATCACAC | -0.196 |
| GCCACTCC | 0.053 |
| CAATGCTG | -0.0735 |
| ACCCTCCG | 0.0962 |
| GGAAGTAC | 0.171 |
| AGTTAATC | -0.149 |
| CTTAGGCC | -0.11 |
| ACCCGGTA | 0.189 |
| AGTGGAAT | -0.136 |
| GGTAGAGA | -0.0891 |
| CTGCAATA | -0.0873 |
| ACCTCCGA | -0.0489 |
| AACTTATA | -0.15 |
| GGGATGAA | -0.103 |
| CGGAGGAG | 0.0836 |
| CCTGTCAA | -0.203 |
| AGACGGTC | 0.0873 |
| ACTACGTA | 0.00822 |
| ACTGGCAT | -0.155 |
| CACCCAAC | -0.215 |
| AACTCGCA | -0.258 |
| ACCTTTCT | -0.148 |
| GCACACAA | -0.189 |

Series 4
Target: Interferon regulatory factor 5, full length, phosphomimetic (IRF5, Homo sapiens, UniProt Q13568-2, residues 1-514, S451D/S453D/S456D/S462D)
Technique: protein-binding microarray
Molecule type: double-stranded DNA, one strand shown
Medium: in vitro
Tested at: 940 nM top
Notes: 60-bp whole probe
Added: salmon DNA 0.4 mg/ml
Relative to: random background probes
Reading: higher = stronger binding
Constant ends, left off below: GCCTAGCAC … GTCTTGATTCGCTTGACGCTGCTG
| Strand | fitted relative affinity |
| --- | --- |
| CGTACTGTATCTAGCCTTGCGTGCTAG | -0.215 z-score |
| GACGGTCTGGGGTATCGGGACGTGCTA | 0.525 z-score |
| GACGGACTGCTACTGCTGCCGTGCTAG | -0.547 z-score |
| ATTTAGTATTACCTATTTCTGTGCTAG | 0.536 z-score |
| GACGGTATCGGTTTAGGGACGTGCTAG | 8.45 z-score |
| TTAGGTTTCGTCACTGGGTTAGTGCTA | 5.7 z-score |
| GACGGACTGGGTGTCGGGACGTGCTAG | -0.54 z-score |
| TCAGATTTCAGTCTCGATTAGTGCTAG | 4.26 z-score |
| CACGGACTGGGGTTTCGGGACGTGCTA | 1.33 z-score |
| GGCGGTCTCCTTCTCCTGACGTGCTAG | 0.143 z-score |
| TTAGAACTGAGTCTCGATTAGTGCTAG | 2.78 z-score |
| GACGGACTGAGACTGGAGACGTGCTAG | -0.322 z-score |
| TTAGGACTGGGGTATCGGTTGGTGCTA | 2.32 z-score |
| GACGGTTTCCTTGCCCTGACGTGCTAG | 1.06 z-score |
| TTAGATTTCAGTCTCGTTTAGTGCTAG | 3.06 z-score |
| TTCGATTTCAGACTGGATTAGTGCTAG | 0.165 z-score |
| GACGAACTGGGGTTTCGAGAAGTGCTA | 1.6 z-score |
| GACGGTATCGGGTTTAGGGACGTGCTA | 4.31 z-score |
| TTAGGGTTCCTTATCCTTTAGTGCTAG | -0.304 z-score |

Series 5
Target: RNA binding protein fox-1 homolog 2, RRM domain, GST-SBP tag (RBFOX2, Homo sapiens, UniProt O43251-10, residues 100-194)
Technique: RNA Bind-n-Seq
Molecule type: RNA
Medium: in vitro
Tested at: 365 nM
Notes: natural RNA segment, single round, ends assumed
Relative to: no-protein control
Reading: higher = stronger binding
Target sequence (chain): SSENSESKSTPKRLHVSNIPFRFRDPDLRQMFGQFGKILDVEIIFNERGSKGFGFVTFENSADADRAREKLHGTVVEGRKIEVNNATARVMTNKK
| Strand | RBNS enrichment (R) |
| --- | --- |
| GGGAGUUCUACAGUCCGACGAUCUGGUGUAAAAGGGUCCCUGGUUUCCCUAUCAGCUAUAAUUUUUAUAUUUAGAAACUCAAAAUCAUGUCCUCUUCCACCGGCAGCAAUAUAGUGGAGAAACCAGAAAGAAAUGGAAUUCUCGGGUGCCAA | 0.486 |
| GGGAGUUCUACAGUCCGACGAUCUAUGAGUUCAUAUGUGGAAGAAAACUGGUGUUUUAGUAAAACCAAGUUCUUGACAUUAAUCUGUUGAGUUGUGGAUACUGGAAACCAUUUGUGUGUUCAAUCAGAUAAUUUGGAAUUCUCGGGUGCCAA | 0.479 |
| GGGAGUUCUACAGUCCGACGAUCGGGGGAGAGAAGCUGUGGCAUAAUGUAUAGCUCUGUAGUCUUCUGUGUAGCUAGACUGUUAACCUACGAUUGUAAACUAGCUGUAAGGAUUUCCCAGUGAAAUCAGAUUUUGGAAUUCUCGGGUGCCAA | 0.491 |
| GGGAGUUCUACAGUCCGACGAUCGCAGACACGGCACAGCAAACAUUUUGCAAACUGCAGCAGAAAUCGAAUUUAAAACAAAAAGGAGGGACUUUAAAAUACCUUCUUGACAAAAAUCAACAAUGCACAACUUAUGGAAUUCUCGGGUGCCAA | 0.303 |
| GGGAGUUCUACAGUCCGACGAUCGAUAGUUAAAAUUUCACUGCCAGGUUUCUUCUGCCCACCCAAAAGAUCCAGUCUAUAAUUACAGAUUUUGUAAGAAAAAAUAUAUAUACACAUAACUGACUGGAAAGAAUUGGAAUUCUCGGGUGCCAA | 0.863 |
| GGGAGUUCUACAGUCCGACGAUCAAGGAGUCUGGGUGGAAGCAAAUUGUUUUUAAUGGACUUGCAUCUCCUCACCUUGAUCAGGACUAAAGGACGGAGGCCACUCCACCCCUUCCCCUUCUUCCAAAUCCCUAUGGAAUUCUCGGGUGCCAA | 0.247 |
| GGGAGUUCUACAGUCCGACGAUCUGUGGCACUGAGGAGCUGACUUUGGUCAAAGGCCAGGCUCUGCCCAGCAGGGGACUUGACUGCCCUGGGCGCCCUGCCCCUCCCGCUGCGUGUCCAGGUCCAAAGUGGAGUGGAAUUCUCGGGUGCCAA | 0.522 |
| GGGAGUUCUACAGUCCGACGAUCUGUGGACUGUAUUUUGAUGCAACAACAAAGAAACUGUUCACUUUUCAAAUAAAAUGAUAUGUCAGAUUCAUUUUUGGUUCCUUGAAUACAUGUAAGAUGGGGAAAUAUGCUGGAAUUCUCGGGUGCCAA | 1.15 |
| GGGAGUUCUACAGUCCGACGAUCUGAUGCCAUAAUUUUCUAUGGCUCACUAGCUACACUUCCUAGACAUGAGGACUGAUUCCUGUUCACACAACAAAUAUUCAGUGAAUGUCUACUAUGUGCCAGGUUCUGGGUGGAAUUCUCGGGUGCCAA | 0.218 |
| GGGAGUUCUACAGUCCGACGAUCUUGAAGCAUGUGUUACCUGGUUAAGCUUGUUUUCUCUUGCUUUAGGCAAAUAAAAGUUUAAAAAUCACCUUGUUGUGGUUUUCCUGUACCAAAUCACACCUACCUGCCCCUGGAAUUCUCGGGUGCCAA | 0.658 |
| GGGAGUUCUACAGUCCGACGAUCGCUGUAGUGGUUGGUGGAUCCUGGCAUUUCAGAGAAAAGGUCAUGAGGUGGUUUUGGGCUGUGGUUUCCAGUCUGACCCAGGAGGAACUGGCUAGGCUGCUUCAGUUUACUGGAAUUCUCGGGUGCCAA | 1.11 |
| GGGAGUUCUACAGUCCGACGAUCAUAUAAUUACUCCCAUUUUGCAGAUGAAGUAACUGAGGCUUAGAAAGGUUAAUAGCACCGGGGAACAAUUUCUCUGGGUGAGAAUUGGGACUCUGUUGCUGGUCUUCUCAUGGAAUUCUCGGGUGCCAA | 0.521 |

For quick reference, copied from above (series 3):
| Strand | E-score |
| --- | --- |
| GTTCGAAC | -0.215 |
| GCCCGAAA | -0.0415 |
| GATCACAC | -0.196 |
| GCCACTCC | 0.053 |
| CAATGCTG | -0.0735 |
| ACCCTCCG | 0.0962 |
| GGAAGTAC | 0.171 |
| AGTTAATC | -0.149 |
| CTTAGGCC | -0.11 |
